{"data": "Published values from different studies", "note": "A part holds a random share of what one study measured.", "UniProt P42336, sequence (whole entry, unmodified, looked up)": "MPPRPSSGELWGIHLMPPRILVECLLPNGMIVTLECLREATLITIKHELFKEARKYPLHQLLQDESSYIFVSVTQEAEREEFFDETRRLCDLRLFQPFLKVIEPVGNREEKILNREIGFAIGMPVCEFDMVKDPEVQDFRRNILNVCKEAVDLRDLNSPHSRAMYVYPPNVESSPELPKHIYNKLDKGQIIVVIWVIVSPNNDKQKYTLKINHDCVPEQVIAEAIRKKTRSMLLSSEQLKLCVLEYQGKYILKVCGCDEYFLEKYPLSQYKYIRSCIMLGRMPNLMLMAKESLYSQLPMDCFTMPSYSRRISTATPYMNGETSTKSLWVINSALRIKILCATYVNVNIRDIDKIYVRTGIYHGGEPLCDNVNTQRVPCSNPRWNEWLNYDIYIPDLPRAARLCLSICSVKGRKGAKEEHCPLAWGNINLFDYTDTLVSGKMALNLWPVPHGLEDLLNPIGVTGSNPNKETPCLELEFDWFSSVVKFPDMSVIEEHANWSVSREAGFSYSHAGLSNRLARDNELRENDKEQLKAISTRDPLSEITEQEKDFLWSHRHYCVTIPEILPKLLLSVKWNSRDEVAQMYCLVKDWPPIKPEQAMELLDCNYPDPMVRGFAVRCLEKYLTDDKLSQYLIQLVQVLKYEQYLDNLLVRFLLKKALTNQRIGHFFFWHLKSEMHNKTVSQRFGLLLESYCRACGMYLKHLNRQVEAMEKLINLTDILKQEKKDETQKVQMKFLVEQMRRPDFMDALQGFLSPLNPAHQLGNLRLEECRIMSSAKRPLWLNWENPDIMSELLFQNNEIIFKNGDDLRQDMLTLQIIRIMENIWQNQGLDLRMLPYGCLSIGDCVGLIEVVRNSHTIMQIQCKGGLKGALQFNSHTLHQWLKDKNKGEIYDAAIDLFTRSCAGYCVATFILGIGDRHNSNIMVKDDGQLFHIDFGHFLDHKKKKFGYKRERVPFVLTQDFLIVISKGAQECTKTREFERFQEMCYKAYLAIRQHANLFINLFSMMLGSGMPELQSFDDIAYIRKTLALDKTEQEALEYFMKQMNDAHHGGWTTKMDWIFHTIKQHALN", "UniProt P50750, sequence (whole entry, looked up)": "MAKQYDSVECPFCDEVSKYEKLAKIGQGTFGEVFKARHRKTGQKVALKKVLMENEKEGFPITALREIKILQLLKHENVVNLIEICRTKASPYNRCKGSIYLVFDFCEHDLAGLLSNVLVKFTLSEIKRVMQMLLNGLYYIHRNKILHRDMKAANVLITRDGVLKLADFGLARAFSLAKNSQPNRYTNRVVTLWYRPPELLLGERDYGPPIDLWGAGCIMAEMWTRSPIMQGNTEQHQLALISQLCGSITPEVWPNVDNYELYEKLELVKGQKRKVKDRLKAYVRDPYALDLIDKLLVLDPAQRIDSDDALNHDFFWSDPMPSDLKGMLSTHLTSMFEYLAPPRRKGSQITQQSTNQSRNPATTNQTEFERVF", "UniProt P68400, sequence (whole entry, looked up)": "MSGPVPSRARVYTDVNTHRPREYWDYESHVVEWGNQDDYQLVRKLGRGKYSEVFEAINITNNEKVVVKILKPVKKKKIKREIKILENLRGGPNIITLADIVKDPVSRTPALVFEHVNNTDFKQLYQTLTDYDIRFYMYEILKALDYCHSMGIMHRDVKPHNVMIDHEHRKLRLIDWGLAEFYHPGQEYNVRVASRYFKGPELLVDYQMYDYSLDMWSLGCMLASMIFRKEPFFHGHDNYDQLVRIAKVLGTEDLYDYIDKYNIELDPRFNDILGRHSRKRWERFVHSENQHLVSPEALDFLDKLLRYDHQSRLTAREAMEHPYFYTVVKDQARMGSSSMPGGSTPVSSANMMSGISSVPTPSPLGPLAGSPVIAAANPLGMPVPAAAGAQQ", "UniProt P41743, sequence (whole entry, looked up)": "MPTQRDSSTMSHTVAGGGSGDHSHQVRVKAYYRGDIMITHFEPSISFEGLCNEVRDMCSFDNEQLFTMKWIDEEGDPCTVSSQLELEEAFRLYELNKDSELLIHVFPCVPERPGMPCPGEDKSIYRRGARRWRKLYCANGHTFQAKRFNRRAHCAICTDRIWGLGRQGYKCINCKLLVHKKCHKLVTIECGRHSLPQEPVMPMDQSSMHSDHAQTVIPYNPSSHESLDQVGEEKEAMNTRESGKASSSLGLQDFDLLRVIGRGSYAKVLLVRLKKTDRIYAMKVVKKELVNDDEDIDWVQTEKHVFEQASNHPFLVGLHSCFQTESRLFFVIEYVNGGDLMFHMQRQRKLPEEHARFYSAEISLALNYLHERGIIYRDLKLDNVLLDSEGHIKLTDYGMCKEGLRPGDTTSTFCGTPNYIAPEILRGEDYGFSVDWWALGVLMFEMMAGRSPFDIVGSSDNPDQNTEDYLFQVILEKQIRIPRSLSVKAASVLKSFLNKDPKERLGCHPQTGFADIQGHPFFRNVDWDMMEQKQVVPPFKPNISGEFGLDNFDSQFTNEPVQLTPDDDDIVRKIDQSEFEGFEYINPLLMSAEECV", "UniProt Q13976, sequence (whole entry, looked up)": "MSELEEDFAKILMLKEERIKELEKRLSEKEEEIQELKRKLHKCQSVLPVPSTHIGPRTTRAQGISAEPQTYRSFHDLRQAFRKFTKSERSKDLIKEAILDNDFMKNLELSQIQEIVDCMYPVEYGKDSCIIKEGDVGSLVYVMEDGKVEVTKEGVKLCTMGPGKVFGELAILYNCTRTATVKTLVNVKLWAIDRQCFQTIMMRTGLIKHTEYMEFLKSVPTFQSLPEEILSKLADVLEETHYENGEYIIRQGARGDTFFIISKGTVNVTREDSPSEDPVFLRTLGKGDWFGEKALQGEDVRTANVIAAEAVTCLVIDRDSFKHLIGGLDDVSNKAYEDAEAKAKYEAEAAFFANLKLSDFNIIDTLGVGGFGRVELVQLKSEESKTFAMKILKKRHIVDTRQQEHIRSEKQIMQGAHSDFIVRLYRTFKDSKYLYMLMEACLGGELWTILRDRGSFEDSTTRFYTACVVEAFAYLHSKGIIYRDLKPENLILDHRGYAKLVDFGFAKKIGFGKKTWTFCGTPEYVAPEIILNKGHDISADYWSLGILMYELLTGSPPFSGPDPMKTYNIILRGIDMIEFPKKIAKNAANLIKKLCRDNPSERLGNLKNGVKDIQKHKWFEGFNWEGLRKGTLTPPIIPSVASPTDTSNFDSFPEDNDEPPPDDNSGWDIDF", "UniProt P07948, sequence (whole entry, looked up)": "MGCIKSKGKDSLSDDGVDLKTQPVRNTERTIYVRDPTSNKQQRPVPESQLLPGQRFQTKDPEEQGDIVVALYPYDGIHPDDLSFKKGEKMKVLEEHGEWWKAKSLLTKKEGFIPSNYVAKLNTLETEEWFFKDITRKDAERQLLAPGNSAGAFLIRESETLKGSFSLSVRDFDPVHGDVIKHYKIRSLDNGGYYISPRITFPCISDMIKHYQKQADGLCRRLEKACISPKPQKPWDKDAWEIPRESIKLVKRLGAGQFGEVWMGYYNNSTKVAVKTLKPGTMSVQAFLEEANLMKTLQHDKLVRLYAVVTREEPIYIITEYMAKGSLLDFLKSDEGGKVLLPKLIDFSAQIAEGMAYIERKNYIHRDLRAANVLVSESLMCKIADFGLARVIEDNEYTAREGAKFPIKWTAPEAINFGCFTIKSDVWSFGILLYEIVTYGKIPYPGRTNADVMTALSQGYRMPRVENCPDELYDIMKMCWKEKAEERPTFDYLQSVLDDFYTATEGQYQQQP", "UniProt O15264, sequence (whole entry, looked up)": "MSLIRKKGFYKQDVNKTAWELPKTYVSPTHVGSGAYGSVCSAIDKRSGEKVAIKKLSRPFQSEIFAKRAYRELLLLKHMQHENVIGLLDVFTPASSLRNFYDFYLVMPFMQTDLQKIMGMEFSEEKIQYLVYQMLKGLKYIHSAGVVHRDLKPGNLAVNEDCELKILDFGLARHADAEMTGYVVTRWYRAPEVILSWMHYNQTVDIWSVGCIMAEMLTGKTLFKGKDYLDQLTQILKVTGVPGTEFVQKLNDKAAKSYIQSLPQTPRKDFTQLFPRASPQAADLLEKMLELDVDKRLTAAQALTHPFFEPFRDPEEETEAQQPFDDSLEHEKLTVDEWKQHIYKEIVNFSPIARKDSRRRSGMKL", "UniProt Q13882, sequence (whole entry, looked up)": "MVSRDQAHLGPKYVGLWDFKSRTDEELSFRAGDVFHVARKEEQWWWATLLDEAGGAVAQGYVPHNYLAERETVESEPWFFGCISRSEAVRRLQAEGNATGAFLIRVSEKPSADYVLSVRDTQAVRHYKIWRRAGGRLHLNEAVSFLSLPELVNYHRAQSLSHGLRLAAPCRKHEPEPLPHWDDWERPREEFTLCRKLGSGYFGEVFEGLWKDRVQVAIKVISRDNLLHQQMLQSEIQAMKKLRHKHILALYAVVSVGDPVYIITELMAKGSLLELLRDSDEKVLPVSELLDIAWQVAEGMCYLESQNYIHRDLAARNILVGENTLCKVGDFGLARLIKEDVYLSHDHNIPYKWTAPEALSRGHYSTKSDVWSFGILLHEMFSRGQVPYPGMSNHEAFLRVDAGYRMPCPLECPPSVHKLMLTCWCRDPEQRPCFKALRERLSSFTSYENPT"}
{"data": "Set 1", "SMILES": "N#CC1(c2ccccn2)CCN(Cc2cc(C(=O)N3CCCC3)c(=O)n3ccccc23)CC1", "tested at": "1 µM"}
{"target": "Receptor-interacting serine/threonine-protein kinase 2 (RIPK2, Homo sapiens, UniProt O43353)", "effect on": "cell-free assay", "method": "competition with immobilised ligand", "remaining binding [%]": 83}
{"target": "Casein kinase I isoform gamma-1 (CSNK1G1, Homo sapiens, UniProt Q9HCP0)", "effect on": "cell-free assay", "method": "competition with immobilised ligand", "remaining binding [%]": 79}
{"target": "Serine/threonine-protein kinase B-raf (BRAF, Homo sapiens, UniProt P15056, V600E)", "effect on": "cell-free assay", "method": "competition with immobilised ligand", "remaining binding [%]": 99}
{"target": "Tyrosine-protein kinase Mer (MERTK, Homo sapiens, UniProt Q12866)", "effect on": "cell-free assay", "method": "competition with immobilised ligand", "remaining binding [%]": 86}
{"target": "Protein-tyrosine kinase 6 (PTK6, Homo sapiens, UniProt Q13882)", "effect on": "cell-free assay", "method": "competition with immobilised ligand", "remaining binding [%]": 82}
{"target": "Tyrosine-protein kinase ABL1, phosphorylated (ABL1, Homo sapiens, UniProt P00519, F317I)", "effect on": "binding", "remaining binding [%]": 75}
{"target": "Serine/threonine-protein kinase LATS1 (LATS1, Homo sapiens, UniProt O95835)", "effect on": "cell-free assay", "method": "competition with immobilised ligand", "remaining binding [%]": 100}
{"target": "Protein-tyrosine kinase 2-beta (PTK2B, Homo sapiens, UniProt Q14289)", "effect on": "cell-free assay", "method": "competition with immobilised ligand", "remaining binding [%]": 86}
{"target": "Receptor-type tyrosine-protein kinase FLT3 (FLT3, Homo sapiens, UniProt P36888, R834Q)", "effect on": "cell-free assay", "method": "competition with immobilised ligand", "remaining binding [%]": 100}
{"target": "Ephrin type-B receptor 6 (EPHB6, Homo sapiens, UniProt O15197)", "effect on": "cell-free assay", "method": "competition with immobilised ligand", "remaining binding [%]": 100}
{"target": "Ephrin type-B receptor 3 (EPHB3, Homo sapiens, UniProt P54753)", "effect on": "cell-free assay", "method": "competition with immobilised ligand", "remaining binding [%]": 90}
{"target": "Serine/threonine-protein kinase PRP4 homolog (PRPF4B, Homo sapiens, UniProt Q13523)", "effect on": "cell-free assay", "method": "competition with immobilised ligand", "remaining binding [%]": 78}
{"target": "Phosphatidylinositol 4,5-bisphosphate 3-kinase catalytic subunit alpha isoform (PIK3CA, Homo sapiens, UniProt P42336, E545K)", "effect on": "cell-free assay", "method": "competition with immobilised ligand", "remaining binding [%]": 76}
{"target": "Cyclin-dependent kinase 5 (CDK5, Homo sapiens, UniProt Q00535)", "effect on": "cell-free assay", "method": "competition with immobilised ligand", "remaining binding [%]": 92}
{"target": "cAMP-dependent protein kinase catalytic subunit beta (PRKACB, Homo sapiens, UniProt P22694)", "effect on": "cell-free assay", "method": "competition with immobilised ligand", "remaining binding [%]": 54}
{"target": "Mitogen-activated protein kinase kinase kinase 7 (MAP3K7, Homo sapiens, UniProt O43318)", "effect on": "cell-free assay", "method": "competition with immobilised ligand", "remaining binding [%]": 99}
{"target": "Angiopoietin-1 receptor (TEK, Homo sapiens, UniProt Q02763)", "effect on": "cell-free assay", "method": "competition with immobilised ligand", "remaining binding [%]": 85}
{"target": "Mitogen-activated protein kinase kinase kinase kinase 1 (MAP4K1, Homo sapiens, UniProt Q92918)", "effect on": "cell-free assay", "method": "competition with immobilised ligand", "remaining binding [%]": 100}
{"target": "Tyrosine-protein kinase JAK1, JH2 (JAK1, Homo sapiens, UniProt P23458)", "effect on": "cell-free assay", "method": "competition with immobilised ligand", "remaining binding [%]": 100}
{"target": "Tyrosine-protein kinase ABL1, non-phosphorylated (ABL1, Homo sapiens, UniProt P00519, T315I)", "effect on": "cell-free assay", "method": "competition with immobilised ligand", "remaining binding [%]": 83}
{"target": "Phosphatidylinositol 4,5-bisphosphate 3-kinase catalytic subunit beta isoform (PIK3CB, Homo sapiens, UniProt P42338)", "effect on": "cell-free assay", "method": "competition with immobilised ligand", "remaining binding [%]": 100}
{"target": "Cyclin-dependent kinase 9 (CDK9, Homo sapiens, UniProt P50750)", "effect on": "cell-free assay", "method": "competition with immobilised ligand", "remaining binding [%]": 88}
{"target": "Ribosomal protein S6 kinase alpha-5, C-terminal kinase domain (RPS6KA5, Homo sapiens, UniProt O75582)", "effect on": "cell-free assay", "method": "competition with immobilised ligand", "remaining binding [%]": 90}
{"target": "Mitogen-activated protein kinase kinase kinase 5 (MAP3K5, Homo sapiens, UniProt Q99683)", "effect on": "cell-free assay", "method": "competition with immobilised ligand", "remaining binding [%]": 80}
{"target": "Phosphatidylinositol 4,5-bisphosphate 3-kinase catalytic subunit alpha isoform (PIK3CA, Homo sapiens, UniProt P42336, E545A)", "effect on": "cell-free assay", "method": "competition with immobilised ligand", "remaining binding [%]": 78}
{"data": "Set 2", "species": "mouse", "matrix": "microsomes or S9", "tested at": "2 µM", "time": "0.5 h"}
{"Compound": "CCOc1cc(=O)n2c(c1C(=O)Nc1ccc3c(c1)OCO3)CCCC2", "remaining compound": "55.9%"}
{"Compound": "O=C(c1c(OCC2CC2)cc(=O)n2c1CCOCC2)N1CCN(c2ccccc2)CC1", "remaining compound": "41%"}
{"Compound": "CC(=O)Nc1ccc(S(=O)(=O)N[C@H](C(=O)O)C2CCCCC2)cc1", "remaining compound": "> 100%"}
{"Compound": "O=C1CCC2(C(=O)N3CCN(c4ncccn4)CC3)CCCC=C2N1C1CCCC1 (stereo not drawn)", "remaining compound": "0.195%"}
{"Compound": "COc1cc(=O)[nH]cc1C(=O)N(C)C1(Cc2ccccc2)CCCC1", "remaining compound": "0.168%"}
{"Compound": "COc1nc(Nc2ccc3[nH]ncc3c2)c(Cl)c(OC)n1", "remaining compound": "0.139%"}
{"Compound": "COc1ccc(CCN[C@H]2CS(=O)(=O)C[C@@H]2S(=O)(=O)c2ccc(F)c(C)c2)cc1OC", "remaining compound": "4.83%"}
{"Compound": "COc1ccc2c(c1)c(=O)oc1cc(OC/C=C(/C)CCC=C(C)C)ccc12", "remaining compound": "63.4%"}
{"Compound": "Cc1oc(-c2nc(C#N)c(N(C)C)o2)cc1S(=O)(=O)N(C)c1ccccc1", "remaining compound": "95.7%"}
{"Compound": "CC(C)(CNC(=O)[C@@H]1OCC[C@@H]1Cn1cccn1)C1CCOCC1", "remaining compound": "18.4%"}
{"Compound": "COc1cc2c(Nc3cccc(Br)c3)ncnc2cc1OCC1CNCCO1 (stereo not drawn)", "remaining compound": "> 99.9%"}
{"Compound": "Cc1cc(C#N)cc(C(=O)c2c(C(C)C)c(=O)n(Cc3cc(Cl)cc(Cl)n3)c(=O)n2Cc2cc(Cl)nc(Cl)n2)c1", "remaining compound": "0%"}
{"Compound": "COc1c(C)c2c(c(OC)c1C/C=C(\\C)CCC(=O)N1CCOCC1)C(=O)OC2", "remaining compound": "0.132%"}
{"Compound": "CCOCCOC(=O)C(C)Oc1ccc(Oc2ncc(Cl)cc2Cl)cc1 (stereo not drawn)", "remaining compound": "0%"}
{"data": "Set 3", "target": "Calcium/calmodulin-dependent protein kinase type II subunit alpha (CAMK2A, Homo sapiens, UniProt Q9UQM7)", "effect on": "enzyme activity", "mode": "inhibitor", "tested at": "10 µM", "UniProt Q9UQM7, sequence (whole entry, looked up)": "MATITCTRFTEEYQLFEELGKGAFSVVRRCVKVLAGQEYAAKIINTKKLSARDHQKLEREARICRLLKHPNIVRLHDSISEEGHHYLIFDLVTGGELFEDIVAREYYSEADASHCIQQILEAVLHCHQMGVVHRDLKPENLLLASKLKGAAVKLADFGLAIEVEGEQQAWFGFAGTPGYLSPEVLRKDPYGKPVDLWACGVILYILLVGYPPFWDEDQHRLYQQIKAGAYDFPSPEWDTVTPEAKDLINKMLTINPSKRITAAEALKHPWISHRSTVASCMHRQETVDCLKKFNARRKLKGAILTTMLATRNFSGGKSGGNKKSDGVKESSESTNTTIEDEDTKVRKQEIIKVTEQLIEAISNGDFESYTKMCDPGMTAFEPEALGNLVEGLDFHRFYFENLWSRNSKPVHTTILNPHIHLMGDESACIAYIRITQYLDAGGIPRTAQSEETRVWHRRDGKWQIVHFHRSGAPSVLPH"}
{"Compound": "COc1cc(O)c2c(=O)cc(-c3ccc(OC)c(OC)c3)oc2c1", "inhibition [%]": -27}
{"Compound": "Oc1cc(O)c(Cl)cn1", "inhibition [%]": -5}
{"Compound": "OCC(CO)N[C@H]1C[C@](O)(CO)[C@@H](O)[C@H](O)[C@H]1O", "inhibition [%]": 15}
{"Compound": "Cc1ccccc1N1C(=O)c2cc(S(N)(=O)=O)c(Cl)cc2NC1C (stereo not drawn)", "inhibition [%]": -8}
{"Compound": "C[C@H]1[C@H](C)CC[C@]2(C(=O)O)CC[C@]3(C)C(=CC[C@@H]4[C@@]5(C)C[C@@H](O)[C@H](O)[C@@](C)(CO)[C@@H]5CC[C@]43C)[C@H]12", "inhibition [%]": -10}
{"Compound": "C[C@H](O)[C@H](O)c1cnc2nc(N)[nH]c(=O)c2n1", "inhibition [%]": -6}
{"Compound": "C[C@H](CC[C@@H](O[C@@H]1O[C@H](CO)[C@@H](O)[C@H](O)[C@H]1O)C(C)(C)O)[C@H]1CC[C@@]2(C)[C@@H]3CC=C4[C@@H](CC[C@H](O)C4(C)C)[C@]3(C)[C@H](O)C[C@]12C", "inhibition [%]": 51}
{"Compound": "O[C@H]([C@H](O)[C@@H]1CO1)[C@H]1CO1", "inhibition [%]": -4}
{"Compound": "O=C1CN(/N=C/C=C/c2ccc([N+](=O)[O-])o2)C(=O)N1", "inhibition [%]": 1}
{"Compound": "C[C@@H](O)[C@H]1C(=O)N2C(C(=O)O)=C([C@H]3CCCO3)S[C@H]12", "inhibition [%]": -8}
{"Compound": "CCCCCC/C=C\\CCCCCCCC(=O)O", "inhibition [%]": 33}
{"Compound": "O=C(O[C@@H]1Cc2c(O)cc(O)cc2O[C@H]1c1ccc(O)c(O)c1)c1cc(O)c(O)c(O)c1", "inhibition [%]": -46}
{"Compound": "COC(=O)[C@H]1[C@H]2C[C@H]3c4[nH]c5ccccc5c4CCN3C[C@H]2CC[C@@H]1O", "inhibition [%]": 15}
{"data": "Set 4", "SMILES": "CNc1cc2c(Nc3cccc(Br)c3)ncnc2cn1", "effect on": "enzyme activity", "mode": "inhibitor", "tested at": "0.5 µM", "relative to": "control"}
{"target": "Serine/threonine-protein kinase WNK2 (WNK2, Homo sapiens, UniProt Q9Y3S1)", "remaining activity [%]": 114}
{"target": "Cyclin-dependent kinase 9, with cyclin T1 (CDK9, Homo sapiens, UniProt P50750)", "remaining activity [%]": 106}
{"target": "cGMP-dependent protein kinase 1 (PRKG1, Homo sapiens, UniProt Q13976)", "remaining activity [%]": 92.7}
{"target": "Casein kinase II subunit alpha (CSNK2A1, Homo sapiens, UniProt P68400)", "remaining activity [%]": 94.3}
{"target": "Mitogen-activated protein kinase kinase kinase kinase 2 (MAP4K2, Homo sapiens, UniProt Q12851)", "remaining activity [%]": 74.8}
{"target": "Serine/threonine-protein kinase Nek4 (NEK4, Homo sapiens, UniProt P51957)", "remaining activity [%]": 94.9}
{"target": "Serine/threonine-protein kinase PLK2 (PLK2, Homo sapiens, UniProt Q9NYY3)", "remaining activity [%]": 97.5}
{"target": "Tyrosine-protein kinase BTK (BTK, Homo sapiens, UniProt Q06187)", "remaining activity [%]": 94.7}
{"target": "RAC-gamma serine/threonine-protein kinase (AKT3, Homo sapiens, UniProt Q9Y243)", "remaining activity [%]": 103}
{"target": "Interleukin-1 receptor-associated kinase 4 (IRAK4, Homo sapiens, UniProt Q9NWZ3)", "remaining activity [%]": 82.6}
{"target": "Tyrosine-protein kinase Lyn (LYN, Homo sapiens, UniProt P07948)", "remaining activity [%]": 63.9}
{"target": "MAP kinase-interacting serine/threonine-protein kinase 2 (MKNK2, Homo sapiens, UniProt Q9HBH9)", "remaining activity [%]": 32.3}
{"target": "Serine/threonine-protein kinase Chk1 (CHEK1, Homo sapiens, UniProt O14757)", "remaining activity [%]": 108}
{"target": "Casein kinase I isoform alpha (CSNK1A1, Homo sapiens, UniProt P48729)", "remaining activity [%]": 125}
{"target": "Mitogen-activated protein kinase 12 (MAPK12, Homo sapiens, UniProt P53778)", "remaining activity [%]": 93.6}
{"target": "Mast/stem cell growth factor receptor Kit (KIT, Homo sapiens, UniProt P10721)", "remaining activity [%]": 86.4}
{"target": "Protein kinase C iota type (PRKCI, Homo sapiens, UniProt P41743)", "remaining activity [%]": 96.4}
{"target": "Dual specificity mitogen-activated protein kinase kinase 6 (MAP2K6, Homo sapiens, UniProt P52564)", "remaining activity [%]": 94.5}
{"target": "Serine/threonine-protein kinase 38 (STK38, Homo sapiens, UniProt Q15208)", "remaining activity [%]": 98.5}
{"target": "Mitogen-activated protein kinase kinase kinase 10 (MAP3K10, Homo sapiens, UniProt Q02779)", "remaining activity [%]": 90.1}
{"target": "Ephrin type-A receptor 5 (EPHA5, Homo sapiens, UniProt P54756)", "remaining activity [%]": 106}
{"target": "Mitogen-activated protein kinase 13 (MAPK13, Homo sapiens, UniProt O15264)", "remaining activity [%]": 102}
{"target": "Leucine-rich repeat serine/threonine-protein kinase 2 (LRRK2, Homo sapiens, UniProt Q5S007)", "remaining activity [%]": 67}
